Published values collected from several papers.
Parts stem from different laboratories: compare values within a part only.

Block 1 — technique: RNA Bind-n-Seq; form: RNA; sample: in vitro; tested at: not given; reference: input RNA pool; reading: higher = stronger binding
Target: RING finger protein unkempt homolog, zinc fingers 1-6, GST-SBP tag (UNK, Homo sapiens, UniProt Q9C0B0, residues 30-357)
Chain of UniProt Q9C0B0 (30-357, looked up): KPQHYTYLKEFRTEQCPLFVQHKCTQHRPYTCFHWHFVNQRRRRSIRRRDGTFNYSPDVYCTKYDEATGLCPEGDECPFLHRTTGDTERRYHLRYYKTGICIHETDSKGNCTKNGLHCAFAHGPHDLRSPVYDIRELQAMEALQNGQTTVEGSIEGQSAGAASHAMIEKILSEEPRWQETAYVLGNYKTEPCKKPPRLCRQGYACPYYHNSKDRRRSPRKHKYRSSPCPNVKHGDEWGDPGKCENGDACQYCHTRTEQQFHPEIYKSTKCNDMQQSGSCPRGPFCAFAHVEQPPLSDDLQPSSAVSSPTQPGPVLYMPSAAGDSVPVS
Setting: RNA with constant flanks, human and mouse sites, ends assumed
Oligonucleotide | bound/input enrichment
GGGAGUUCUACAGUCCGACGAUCAAGGUAAGACUUAUUUGUAGUAGAUAAAUAGCCACCAUGGAGACCAAGGACCACAAGAAACAUAGGAAGAAGCACAGUGGGCCUAAAGCUGAGAAGAAAAAGAAACGGCACCUGCAAGACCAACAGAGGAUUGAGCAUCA | 1.09 ratio
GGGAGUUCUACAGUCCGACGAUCCAGAAUGUUAACAGUGUAACUAUAUUUGUUCAGUCGAAUCAAGGUGAAGAGGAAACAACAAGAAUUUCAUAUUUUACUUUUAUUGGUACUCCAGUCCAGGCAACAAAUAUGAAUGACUUCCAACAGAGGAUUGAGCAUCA | 0.159 ratio
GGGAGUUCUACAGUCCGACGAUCGAACAGGAUGAUGAAGAUGAUUUAUCUGCUGGCUUGGCACUGAUUGACCUGGGUCAGAGUAUAGAUAUGAAACUUUUUCCAAAAGGAACUAUAUUCACAGCAAAGUGUGAAACAUCUGGUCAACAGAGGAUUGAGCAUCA | 0.245 ratio
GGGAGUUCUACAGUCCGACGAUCCAGAGGAACCAAUGGGCAUUGGUGGCUCCUGUACCACAUUCCUUUUAUUCAUUUGAACUAAUAGUGGUUCAGAAUUAUCUUUACGCUGUCAACAGUAAGCGCAUGCUCUGCUAUGAUCCUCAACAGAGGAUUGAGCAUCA | 0.207 ratio
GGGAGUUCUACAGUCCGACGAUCGCAGCCCUGUCUGUUCGAAAUCUCUCUCCUUAUGUUUCCAACGAACUUUUGGAAGAGGCCUUUAGCCAGUUUGGUCCUAUUGAAAGGGCUGUUGUAAUUGUGGAUGAUCGCGGAAGAUCUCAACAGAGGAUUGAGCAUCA | 0.207 ratio
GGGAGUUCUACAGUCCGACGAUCAAUCUCUGCAAGCUCAUGAAGGAGAUCUUGGACAAGAAGGUUGAAAAGGUGACAAUCUCCAAUAGGCUUGUGUCUUCACCCUGCUGCAUUGUGACAAGCACCUAUGGCUGGACAGCCAACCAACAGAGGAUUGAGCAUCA | 0.156 ratio
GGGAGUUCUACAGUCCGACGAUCGUGUCCUGCUUUCAACUUAAAUCACUGAGGCAUCUCUACUGUUCUGUGAGCAUCAGGACUGUAGCGCUGUGUCACCACAUGAGAGUUCAGAAGCAGCCUUUCUGUGGAGGGUGGGAAUGACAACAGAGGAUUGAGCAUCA | 0.113 ratio
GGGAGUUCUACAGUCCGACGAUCGAUGAAUUGAUGACCCUGGCUCAUAAACACAUUGUCAAGACUGUGGAUUUCACGCAGGAUAGUAAUUAUUUGUUAACCGGGGGACAGGAUAAACUGUUACGCAUAUAUGACUUGAACAAACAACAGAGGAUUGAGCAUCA | 1.19 ratio

Block 2 — technique: protein binding microarray; form: double-stranded DNA, one strand shown; sample: in vitro; tested at: not given; reference: not given; reading: higher = stronger binding
Target: Histone acetyltransferase KAT6A, winged helix 1, GST fusion (KAT6A, Homo sapiens, UniProt Q92794, residues 1-85)
Setting: 8-mer, flanks averaged, mean of 2 arrays, mostly near background
Residues (chain): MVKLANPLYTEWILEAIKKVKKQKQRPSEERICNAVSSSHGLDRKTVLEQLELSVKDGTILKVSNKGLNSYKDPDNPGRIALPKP
Oligonucleotide | E-score
CCGATTGC | 0.217
ACATATTA | -0.0401
CGCATATA | 0.173
CGCAACGA | 0.0843
ACTGGCCA | -0.243
CCAGGTCG | -0.0482
ACGGGCAA | 0.254
ATTCGAGA | -0.204

Block 3 — technique: competition protein-binding microarray; form: double-stranded DNA, one strand shown; sample: in vitro; tested at: 2 µM; together with: Cbf1 competitor, 0.05 µM; reading: higher = stronger binding
Target: Phosphate system positive regulatory protein PHO4, full length, GST-tagged (PHO4, Saccharomyces cerevisiae, UniProt P07270, residues 1-312)
Setting: whole 60-bp probe, lowest competitor level
Construct (chain): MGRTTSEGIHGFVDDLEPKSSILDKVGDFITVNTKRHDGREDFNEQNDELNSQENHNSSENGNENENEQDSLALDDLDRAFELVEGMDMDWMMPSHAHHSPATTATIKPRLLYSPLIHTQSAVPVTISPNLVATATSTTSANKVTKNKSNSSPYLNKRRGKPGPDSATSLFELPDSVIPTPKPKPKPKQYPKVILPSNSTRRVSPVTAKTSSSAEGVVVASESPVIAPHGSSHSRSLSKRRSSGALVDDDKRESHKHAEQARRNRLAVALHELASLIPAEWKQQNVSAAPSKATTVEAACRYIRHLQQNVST
Oligonucleotide | fluorescence intensity [a.u.]
CATACCCAACCTTGATGTGTGGGTGAAGATATTTGTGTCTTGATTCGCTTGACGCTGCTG | 5580
GGTCATTTCTGACAACACGTGTTTTCTGCCACTGCTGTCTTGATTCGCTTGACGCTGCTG | 17100
TATATATGCATTCACCACGTTCCCGTTAGTCAAACGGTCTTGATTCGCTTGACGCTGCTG | 12600
GGTTGTGGAGCATTCAGCGTGATGGCAAAAGGTGTTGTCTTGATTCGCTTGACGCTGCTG | 6370
GTTGACAAACCCGGCCACGTGACTCGAGCTTAGAAGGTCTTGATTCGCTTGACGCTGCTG | 15600
AGTTAAAACCAGATATGCGTGGGACATAGTAGGGTGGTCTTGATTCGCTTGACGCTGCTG | 9560
AGTCACTATGATGAGGATAATACCATGAAGAAAAATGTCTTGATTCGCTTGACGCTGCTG | 4270
CACTTCACCAAACACAACGTGCTTTCCGTCCAAATGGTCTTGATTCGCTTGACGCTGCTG | 16700

Mixed results
Molecule | target | test | test system | conditions | scale | quantity | value
PhoQ, residues 284 288 289 292 302 303 TTCLQL | PhoP, residues 12 14 15 18 19 NNFVT (Escherichia coli, UniProt P23836) | Sort-seq, item: YFP reporter | E. coli | PhoQ-PhoP variant library, together with: 10 µM Mg2+ | reference: high Mg2+ state, higher = stronger signaling | fold induction | 22.3

A few entries again (block 2):
Oligonucleotide | E-score
CCAGGTCG | -0.0482
